Published values from different studies.
Compare with care: the assays were run in different laboratories.
Target: Ankyrin repeat and protein kinase domain-containing protein 1 (ANKK1, Homo sapiens, UniProt Q8NFD2)

| Compound | test | setting | scale | quantity | value |
| --- | --- | --- | --- | --- | --- |
| COc1c(Cl)cccc1Nc1c(-c2ccncc2C#C[C@@]2(C)CCCN2C(=O)/C=C/CN(C)C)[nH]c2c1C(=O)NCC2 | binding, competition with immobilised ligand | 3 µM | – | remaining binding | 77% |
| COc1cc(Nc2nc(C)cc(-c3cnn4nc(OC)ccc34)n2)cc(C(F)(F)F)c1 | inhibitor | 1 µM | relative to: control | remaining activity | 70% |
| C=CC(=O)N1CCc2ccc(-n3c(=O)ccc4cnc5ccc(-c6cnn(C)c6)cc5c43)cc21 | KINOMEscan | 1 µM | relative to: DMSO control | remaining binding | 51% |
| Cc1cnc2nc1Nc1cccc(c1)COC/C=C/COCc1cc(ccc1OCCN1CCOCC1)N2 | binding | 0.1 µM | – | remaining binding | 96% |
| C=CC(=O)N1Cc2nc(-c3cc(-c4cc(Cl)cnc4Cl)c(F)cc3F)n(-c3ccncn3)c2C1 | cell-free assay | 1 µM | – | inhibition | -2.2% |
| COc1cc(Nc2nccc(-c3cnn4nc(OC)ccc34)n2)cc(C(F)(F)F)c1 | binding, competition with immobilised ligand | 1 µM | – | remaining binding | 78% |
| C=CC(=O)N1CCCC(n2c(=O)c3ncccc3n(Cc3ccc(Oc4ccccc4)cc3)c2=O)C1 (stereo not shown) | cell-free assay, competition with immobilised ligand | 1 µM | – | remaining binding | 99% |
| CNC1C[S+]2CC[S+]3CC[S+](C1)[Ru-4]321([N]=C=S)[n]2c3ccc(OC)cc3c3c4c(c5cc(F)c[n+]1c5c32)C(=O)NC4=O (stereo not shown) | KinomeScan | 0.1 µM | relative to: untreated | remaining binding | 92% |
| CC(C)=CC1OC(C)(C)C2C=C3C(=O)C(Cl)=CC(O)C3C3C(O)C4OC4C(=O)C132 (stereo not shown) | cell-free assay, competition with immobilised ligand | 10 µM | – | remaining binding | 59% |
| CNC(=O)C1CCN(c2cc(C)c(F)cc2NC(=O)c2ccc(-c3cc(O)ccc3C)c(C)c2)CC1 | binding, competition with immobilised ligand | 1 µM | – | remaining binding | 100% |
| Nc1ncc2c(n1)-c1c([nH]c3ccc(C4=CCOCC4)cc13)CCC2 | binding, competition with immobilised ligand | 1 µM | – | remaining binding | 100% |
| CCN1CCN(Cc2ccc(C(=O)Nc3ccc(C)c(NCc4cnc5[nH]ccc5c4OC)c3)cc2C(F)(F)F)CC1 | binding, competition with immobilised ligand | 1 µM | – | remaining binding | 5.2% |
| Cc1ccc(-c2c(/C=C(\C#N)C(=O)NC(C)C)n(CCCO)c3ncnc(N)c23)cc1 | cell-free assay, competition with immobilised ligand | 1 µM | – | remaining binding | 90% |

Excerpt of the above:
| Compound | test | setting | scale | quantity | value |
| --- | --- | --- | --- | --- | --- |
| COc1c(Cl)cccc1Nc1c(-c2ccncc2C#C[C@@]2(C)CCCN2C(=O)/C=C/CN(C)C)[nH]c2c1C(=O)NCC2 | binding, competition with immobilised ligand | 3 µM | – | remaining binding | 77% |
| Nc1ncc2c(n1)-c1c([nH]c3ccc(C4=CCOCC4)cc13)CCC2 | binding, competition with immobilised ligand | 1 µM | – | remaining binding | 100% |
